Published values pooled from the literature.
A part holds a random share of what one study measured.

Set 1
Target: PABPC1L2, full length, GST fusion (mouse, UniProt A0ABA7IW68)
Technique: RNAcompete
Molecule type: RNA
Medium: in vitro
Tested at: 20 nM
Notes: 7-mer, probes averaged, single round
Reference: mean of 7-mers
Direction: higher = stronger binding
Construct (chain): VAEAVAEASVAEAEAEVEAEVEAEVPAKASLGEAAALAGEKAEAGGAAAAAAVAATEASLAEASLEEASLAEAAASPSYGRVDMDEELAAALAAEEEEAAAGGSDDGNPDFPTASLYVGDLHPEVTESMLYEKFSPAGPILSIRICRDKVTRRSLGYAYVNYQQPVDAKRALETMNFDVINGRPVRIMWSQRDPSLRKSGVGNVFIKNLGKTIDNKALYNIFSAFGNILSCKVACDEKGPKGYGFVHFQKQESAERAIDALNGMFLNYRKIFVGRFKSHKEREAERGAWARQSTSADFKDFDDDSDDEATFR
| Strand | 7-mer Z-score |
| --- | --- |
| UUACGUG | -0.18 |
| CUCAGUG | -0.226 |
| UCGCAAC | -0.229 |
| CGUACCA | -0.248 |
| GUAGGAU | -0.0863 |
| UUCUGAC | -0.47 |

Set 2
Target: Sal-like protein 4, full length isoform B (SALL4, Homo sapiens, UniProt Q9UJQ4-2, residues 1-616)
Technique: universal PBM
Molecule type: double-stranded DNA, one strand shown
Medium: in vitro
Tested at: not given
Notes: 8-mer, flanks averaged, mean of replicates
Direction: higher = stronger binding
| Strand | E-score |
| --- | --- |
| GTCACTCA | -0.128 |
| CGCCTTAC | -0.0223 |
| AGTGCGAT | 0.0127 |
| GAGACAGC | -0.218 |
| CAATTCGC | -0.0295 |
| CCCGCGAA | -0.109 |

Set 3
Target: Cyclic AMP-dependent transcription factor ATF-1 (ATF1, Homo sapiens, UniProt P18846, residues 1-271, full length assumed)
Technique: protein-binding microarray
Molecule type: double-stranded DNA, one strand shown
Medium: in vitro
Tested at: not given
Notes: k-mer, scored over probes, only values ≥0.25
Direction: higher = stronger binding
Construct (chain): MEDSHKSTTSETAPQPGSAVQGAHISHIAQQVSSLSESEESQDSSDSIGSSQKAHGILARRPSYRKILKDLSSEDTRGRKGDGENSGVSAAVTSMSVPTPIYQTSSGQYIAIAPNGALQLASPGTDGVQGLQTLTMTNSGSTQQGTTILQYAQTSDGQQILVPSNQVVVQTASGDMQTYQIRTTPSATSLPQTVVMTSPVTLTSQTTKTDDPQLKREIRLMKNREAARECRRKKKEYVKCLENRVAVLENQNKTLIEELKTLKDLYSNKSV
| Strand | E-score |
| --- | --- |
| AACTACG | 0.289 |
| GTATGAC | 0.371 |
| ACGTCAA | 0.435 |
| ACGCGCA | 0.254 |
| GACATCA | 0.291 |

Mixed results
| Substance | target | assay | system | conditions | how to read | endpoint | result |
| --- | --- | --- | --- | --- | --- | --- | --- |
| PhoQ, residues 284 288 289 292 302 303 QWQEDG | PhoP, residues 12 14 15 18 19 TTLRV (Escherichia coli, UniProt P23836) | Sort-seq, item: YFP reporter | E. coli | PhoQ-PhoP variant library, added: 10 µM Mg2+ | reference: high Mg2+ state, higher = stronger signaling | fold induction | 11.1 |

Repeated from above (set 3):
| Strand | E-score |
| --- | --- |
| GTATGAC | 0.371 |
| ACGTCAA | 0.435 |
